Results gathered from unrelated publications.
Protocols differ between the studies behind these lines. Numbers after ± are the reported error.

Protein sequences, listed by entry. Tags and fused reporters are not part of them. Residues count along the entry.
UniProt Q6P5Z2, whole entry: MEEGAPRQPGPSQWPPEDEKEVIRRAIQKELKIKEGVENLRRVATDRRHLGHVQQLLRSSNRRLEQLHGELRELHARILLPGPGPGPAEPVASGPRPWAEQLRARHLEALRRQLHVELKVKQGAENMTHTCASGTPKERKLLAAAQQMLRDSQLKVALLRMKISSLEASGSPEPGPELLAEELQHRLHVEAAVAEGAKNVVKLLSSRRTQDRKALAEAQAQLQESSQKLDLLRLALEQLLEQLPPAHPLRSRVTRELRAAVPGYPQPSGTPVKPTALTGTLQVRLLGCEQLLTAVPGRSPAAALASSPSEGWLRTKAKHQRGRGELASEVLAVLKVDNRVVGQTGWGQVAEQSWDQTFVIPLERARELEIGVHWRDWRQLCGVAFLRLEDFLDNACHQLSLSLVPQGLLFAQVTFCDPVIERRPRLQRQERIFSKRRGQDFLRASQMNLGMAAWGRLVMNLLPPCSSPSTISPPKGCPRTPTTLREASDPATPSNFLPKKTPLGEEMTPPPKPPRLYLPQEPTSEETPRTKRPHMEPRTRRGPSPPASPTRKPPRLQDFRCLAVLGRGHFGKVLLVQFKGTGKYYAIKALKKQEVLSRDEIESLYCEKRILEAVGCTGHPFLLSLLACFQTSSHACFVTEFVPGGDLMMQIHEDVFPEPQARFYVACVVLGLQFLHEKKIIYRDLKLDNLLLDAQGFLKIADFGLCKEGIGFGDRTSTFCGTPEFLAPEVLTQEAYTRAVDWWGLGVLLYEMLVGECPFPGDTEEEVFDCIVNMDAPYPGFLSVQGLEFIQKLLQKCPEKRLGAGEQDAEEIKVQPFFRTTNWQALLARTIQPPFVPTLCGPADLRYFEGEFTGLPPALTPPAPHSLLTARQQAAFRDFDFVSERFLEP
UniProt P09917, whole entry: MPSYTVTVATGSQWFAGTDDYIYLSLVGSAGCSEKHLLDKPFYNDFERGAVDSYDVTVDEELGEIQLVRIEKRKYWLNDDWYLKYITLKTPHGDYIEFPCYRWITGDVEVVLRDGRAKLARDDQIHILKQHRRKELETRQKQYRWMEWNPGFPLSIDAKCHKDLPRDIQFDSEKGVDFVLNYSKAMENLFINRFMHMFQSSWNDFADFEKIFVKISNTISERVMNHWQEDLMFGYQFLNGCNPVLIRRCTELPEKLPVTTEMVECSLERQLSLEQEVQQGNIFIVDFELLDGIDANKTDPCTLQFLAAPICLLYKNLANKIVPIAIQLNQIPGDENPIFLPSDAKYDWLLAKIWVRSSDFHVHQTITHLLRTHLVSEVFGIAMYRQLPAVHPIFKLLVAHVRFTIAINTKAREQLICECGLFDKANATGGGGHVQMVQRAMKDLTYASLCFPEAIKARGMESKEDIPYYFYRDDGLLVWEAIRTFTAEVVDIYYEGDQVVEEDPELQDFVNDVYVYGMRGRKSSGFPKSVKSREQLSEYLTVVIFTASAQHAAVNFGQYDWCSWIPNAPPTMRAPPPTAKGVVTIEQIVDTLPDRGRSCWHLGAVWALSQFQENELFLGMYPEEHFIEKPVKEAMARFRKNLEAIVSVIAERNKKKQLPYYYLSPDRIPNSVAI
UniProt Q13304, whole entry: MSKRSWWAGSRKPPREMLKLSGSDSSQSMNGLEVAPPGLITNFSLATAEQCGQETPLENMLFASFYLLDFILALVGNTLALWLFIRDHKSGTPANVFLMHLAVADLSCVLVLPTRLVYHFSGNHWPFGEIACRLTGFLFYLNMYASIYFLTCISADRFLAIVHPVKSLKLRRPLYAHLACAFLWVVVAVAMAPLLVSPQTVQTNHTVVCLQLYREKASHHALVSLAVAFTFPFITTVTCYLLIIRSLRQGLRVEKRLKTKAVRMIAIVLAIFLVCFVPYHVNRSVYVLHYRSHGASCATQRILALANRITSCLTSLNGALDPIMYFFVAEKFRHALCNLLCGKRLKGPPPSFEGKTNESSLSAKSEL
UniProt P05067, whole entry, looked up: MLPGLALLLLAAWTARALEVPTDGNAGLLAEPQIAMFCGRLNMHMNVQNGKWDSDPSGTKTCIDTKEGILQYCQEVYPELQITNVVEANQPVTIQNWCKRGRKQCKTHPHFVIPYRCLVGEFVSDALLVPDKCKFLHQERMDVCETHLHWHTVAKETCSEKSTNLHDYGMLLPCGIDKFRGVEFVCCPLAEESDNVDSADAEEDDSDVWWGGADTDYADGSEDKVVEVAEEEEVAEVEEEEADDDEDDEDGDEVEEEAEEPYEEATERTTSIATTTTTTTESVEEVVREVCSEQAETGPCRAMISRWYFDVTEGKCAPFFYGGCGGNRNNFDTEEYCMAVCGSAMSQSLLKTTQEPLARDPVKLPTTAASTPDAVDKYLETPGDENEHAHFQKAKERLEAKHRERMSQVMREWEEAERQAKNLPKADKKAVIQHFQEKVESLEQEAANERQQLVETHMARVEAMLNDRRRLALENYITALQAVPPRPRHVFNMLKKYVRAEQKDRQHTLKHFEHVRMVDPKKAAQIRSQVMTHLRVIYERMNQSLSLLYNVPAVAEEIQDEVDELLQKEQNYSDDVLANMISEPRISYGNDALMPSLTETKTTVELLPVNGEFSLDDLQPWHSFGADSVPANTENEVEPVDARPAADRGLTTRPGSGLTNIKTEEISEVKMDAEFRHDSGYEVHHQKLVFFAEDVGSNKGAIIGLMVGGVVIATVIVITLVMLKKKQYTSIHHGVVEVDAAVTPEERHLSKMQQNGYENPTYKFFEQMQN
UniProt P29466, whole entry, looked up: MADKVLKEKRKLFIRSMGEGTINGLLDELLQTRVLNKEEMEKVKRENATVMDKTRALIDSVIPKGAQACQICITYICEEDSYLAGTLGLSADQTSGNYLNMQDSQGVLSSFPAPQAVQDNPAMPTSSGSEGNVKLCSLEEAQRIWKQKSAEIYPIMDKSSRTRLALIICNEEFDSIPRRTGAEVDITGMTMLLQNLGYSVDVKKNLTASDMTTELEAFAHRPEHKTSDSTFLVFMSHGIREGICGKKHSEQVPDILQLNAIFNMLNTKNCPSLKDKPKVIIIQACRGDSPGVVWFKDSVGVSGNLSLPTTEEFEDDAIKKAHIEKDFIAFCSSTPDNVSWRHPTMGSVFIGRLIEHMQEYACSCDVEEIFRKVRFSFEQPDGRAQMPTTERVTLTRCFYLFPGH
UniProt P03372, whole entry: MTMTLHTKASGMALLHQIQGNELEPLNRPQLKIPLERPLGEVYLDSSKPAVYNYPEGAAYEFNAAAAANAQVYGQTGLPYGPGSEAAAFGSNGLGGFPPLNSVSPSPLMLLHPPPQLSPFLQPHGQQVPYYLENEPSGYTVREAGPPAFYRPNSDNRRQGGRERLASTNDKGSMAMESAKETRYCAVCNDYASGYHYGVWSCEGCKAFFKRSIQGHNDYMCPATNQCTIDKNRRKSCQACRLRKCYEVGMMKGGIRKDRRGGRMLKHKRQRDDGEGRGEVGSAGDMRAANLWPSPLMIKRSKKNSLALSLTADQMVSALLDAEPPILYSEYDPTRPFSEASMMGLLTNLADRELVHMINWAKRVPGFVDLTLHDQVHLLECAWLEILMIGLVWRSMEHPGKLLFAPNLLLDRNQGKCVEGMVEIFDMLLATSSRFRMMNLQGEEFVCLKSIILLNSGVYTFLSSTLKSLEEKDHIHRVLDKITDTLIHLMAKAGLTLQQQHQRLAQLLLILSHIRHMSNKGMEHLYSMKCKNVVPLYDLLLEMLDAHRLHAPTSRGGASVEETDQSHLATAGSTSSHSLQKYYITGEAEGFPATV
UniProt P0DMV8, whole entry: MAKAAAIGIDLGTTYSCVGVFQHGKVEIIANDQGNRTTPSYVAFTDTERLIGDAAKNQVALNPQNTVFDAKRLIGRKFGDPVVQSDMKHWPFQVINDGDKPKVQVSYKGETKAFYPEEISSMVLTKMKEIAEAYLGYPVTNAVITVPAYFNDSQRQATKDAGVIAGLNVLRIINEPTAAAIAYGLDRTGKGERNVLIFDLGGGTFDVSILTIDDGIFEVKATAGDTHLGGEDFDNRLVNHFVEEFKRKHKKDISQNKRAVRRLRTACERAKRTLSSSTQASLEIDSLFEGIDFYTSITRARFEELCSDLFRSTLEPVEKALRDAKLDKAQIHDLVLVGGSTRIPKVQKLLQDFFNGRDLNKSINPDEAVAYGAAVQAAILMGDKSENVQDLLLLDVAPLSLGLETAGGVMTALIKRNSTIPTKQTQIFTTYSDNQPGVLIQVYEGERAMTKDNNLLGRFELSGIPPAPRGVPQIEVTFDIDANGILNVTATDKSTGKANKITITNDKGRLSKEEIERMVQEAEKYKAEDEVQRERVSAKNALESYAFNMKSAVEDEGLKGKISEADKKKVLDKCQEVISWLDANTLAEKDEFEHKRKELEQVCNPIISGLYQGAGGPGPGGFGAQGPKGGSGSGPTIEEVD
UniProt P14902, whole entry: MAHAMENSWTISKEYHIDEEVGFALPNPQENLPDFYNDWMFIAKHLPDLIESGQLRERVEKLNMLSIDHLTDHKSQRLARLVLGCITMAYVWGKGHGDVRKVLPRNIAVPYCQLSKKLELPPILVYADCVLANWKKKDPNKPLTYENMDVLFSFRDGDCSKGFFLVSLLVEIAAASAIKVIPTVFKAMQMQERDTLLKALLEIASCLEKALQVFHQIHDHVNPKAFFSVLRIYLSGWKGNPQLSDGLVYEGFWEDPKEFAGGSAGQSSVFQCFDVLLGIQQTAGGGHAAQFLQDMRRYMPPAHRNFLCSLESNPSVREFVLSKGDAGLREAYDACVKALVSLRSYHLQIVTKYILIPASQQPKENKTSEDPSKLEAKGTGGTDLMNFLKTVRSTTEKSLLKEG
UniProt Q00961, 20-1237 limits assumed: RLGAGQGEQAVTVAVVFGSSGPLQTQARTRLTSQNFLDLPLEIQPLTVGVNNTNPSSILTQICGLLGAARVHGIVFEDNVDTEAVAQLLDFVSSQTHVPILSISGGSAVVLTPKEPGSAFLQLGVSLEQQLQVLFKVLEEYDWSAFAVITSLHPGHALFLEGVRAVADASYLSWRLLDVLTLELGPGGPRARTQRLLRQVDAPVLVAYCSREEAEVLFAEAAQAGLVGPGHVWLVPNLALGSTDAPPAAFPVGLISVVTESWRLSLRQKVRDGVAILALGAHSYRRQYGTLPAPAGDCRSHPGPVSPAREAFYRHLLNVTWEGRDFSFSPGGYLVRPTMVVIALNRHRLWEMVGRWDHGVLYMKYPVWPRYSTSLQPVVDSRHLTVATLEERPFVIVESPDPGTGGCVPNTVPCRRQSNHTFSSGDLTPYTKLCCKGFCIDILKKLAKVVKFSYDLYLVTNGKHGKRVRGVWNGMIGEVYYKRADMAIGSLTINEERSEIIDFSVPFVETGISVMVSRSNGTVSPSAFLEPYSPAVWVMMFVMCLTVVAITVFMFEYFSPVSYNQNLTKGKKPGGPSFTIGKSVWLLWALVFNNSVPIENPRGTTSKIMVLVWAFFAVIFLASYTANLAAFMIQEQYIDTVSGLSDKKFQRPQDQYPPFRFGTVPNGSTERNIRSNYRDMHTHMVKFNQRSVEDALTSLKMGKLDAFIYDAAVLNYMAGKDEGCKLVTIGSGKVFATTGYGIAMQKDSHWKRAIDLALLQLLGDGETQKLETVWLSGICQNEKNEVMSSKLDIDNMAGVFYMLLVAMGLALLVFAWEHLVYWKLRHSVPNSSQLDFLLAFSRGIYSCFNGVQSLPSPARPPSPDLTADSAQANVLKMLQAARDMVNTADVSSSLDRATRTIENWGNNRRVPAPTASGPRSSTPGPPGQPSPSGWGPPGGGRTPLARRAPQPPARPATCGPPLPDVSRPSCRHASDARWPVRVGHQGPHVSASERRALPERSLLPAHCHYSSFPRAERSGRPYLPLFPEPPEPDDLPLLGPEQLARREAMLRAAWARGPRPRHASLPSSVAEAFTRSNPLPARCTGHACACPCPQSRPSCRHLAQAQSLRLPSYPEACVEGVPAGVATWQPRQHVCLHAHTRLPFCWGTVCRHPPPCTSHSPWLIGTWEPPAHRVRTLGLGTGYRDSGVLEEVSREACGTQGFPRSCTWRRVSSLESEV
UniProt O00167, whole entry: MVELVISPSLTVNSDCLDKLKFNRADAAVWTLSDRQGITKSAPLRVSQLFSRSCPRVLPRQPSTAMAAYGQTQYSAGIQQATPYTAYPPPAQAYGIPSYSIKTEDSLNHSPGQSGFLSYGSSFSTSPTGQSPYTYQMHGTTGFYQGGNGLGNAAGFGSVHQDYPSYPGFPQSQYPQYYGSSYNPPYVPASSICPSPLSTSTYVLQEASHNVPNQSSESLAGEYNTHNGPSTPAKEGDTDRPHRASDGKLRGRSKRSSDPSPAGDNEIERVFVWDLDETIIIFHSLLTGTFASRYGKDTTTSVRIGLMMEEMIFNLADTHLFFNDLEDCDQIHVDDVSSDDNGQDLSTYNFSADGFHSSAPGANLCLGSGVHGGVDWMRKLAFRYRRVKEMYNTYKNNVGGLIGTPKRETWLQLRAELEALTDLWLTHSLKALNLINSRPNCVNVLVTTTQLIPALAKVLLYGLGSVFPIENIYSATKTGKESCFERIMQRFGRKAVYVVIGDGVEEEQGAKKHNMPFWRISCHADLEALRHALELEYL

With `COc1cc(Nc2ccnc3ccc(Br)cc23)cc(OC)c1OC` the IC50 was 3.5 µM (PKN3 (Homo sapiens, UniProt Q6P5Z2); target engagement, NanoBRET; HEK293).
For `COc1ccc(Nc2c(C(=O)O)ccnc2C(=O)O)cc1`, the IC50 was 164 µM (KDM4E (Homo sapiens, UniProt B2RXH2); inhibitor, FDH-coupled spectrophotometry, measured: formaldehyde).
For `CC[C@H](C)[C@@H]1NC(=O)[C@H](Cc2ccc(O)cc2)NC(=O)CCSCC(=O)CSCCNC(=O)[C@H](Cc2c[nH]cn2)NC(=O)[C@H](Cc2ccc(O)cc2)NC(=O)[C@H](CC(=O)O)NC(=O)[C@H](Cc2ccc(O)cc2)NC(=O)[C@H](CC(C)C)NC(=O)[C@H](CCCNC(=N)N)NC1=O`, the IC50 was 0.317 ± 0.14 µM (Melanoma-associated antigen 4, MAGE homology domain (Homo sapiens, UniProt P43358); peptide binding, inhibitor, TR-FRET; together with: Alexa647-MTP-1 peptide).
`CCCCCC[C@@H]1C(=O)O[C@H]1C(=O)NCCC[C@H](NC(=O)[C@H](C)NC(=O)OCc1ccccc1)C(=O)OCc1ccccc1` has an IC50 of 2.16 ± 0.05 µM (PSMB6/PSMB7, caspase-like site (Homo sapiens, UniProt P28072+Q99436); caspase-like activity, inhibitor, fluorogenic; human 20S proteasome; 20 min preincubation, 37 °C, together with: Z-Leu-Leu-Glu-AMC 20 µM).
With `O=C(Nc1ccc(-c2nc3ccccc3s2)cc1)C1CCCCC1` the IC50 was over 100 µM (Tyrosine-protein kinase SYK, with FCER1G (SYK, Homo sapiens, UniProt P43405); protein binding, inhibitor, TR-FRET).
`Cc1cnc(C#Cc2cccc(-c3nn(-c4nc(C(=O)O)cs4)c(CC4CC4)c3Cc3ccc(S(N)(=O)=O)c(F)c3)c2)o1` has an IC50 of 0.01 µM (LDHA (Homo sapiens, UniProt P00338); enzyme activity, inhibitor).
`COc1cc(O)ccc1CCC(=O)c1ccc(O)cc1` has an IC50 of 8.9 ± 1.6 µM (ALOX5 (Homo sapiens, UniProt P09917); 5-LOX product formation, RP-HPLC; human PMNL; together with: A23187 and arachidonic acid).
For `O=C(Nc1cccc(Br)c1)C(NS(=O)(=O)c1cccs1)c1ccccc1` (stereo not shown), the IC50 was 8.65 ± 1.29 µM (Uracil nucleotide/cysteinyl leukotriene receptor, long isoform (GPR17, Homo sapiens, UniProt Q13304); calcium mobilization, antagonist; 1321-N1).
`O=C(c1ccc(O)c(Br)c1)N1Cc2ccccc2C1` has an IC50 of over 100 µM (HSP90AB1 (Homo sapiens, UniProt P08238); binding, fluorescence polarization; together with: FITC-geldanamycin tracer).
The IC50 of `NC(N)=NN=C1CCCc2cc(NC(=O)c3cc4cccc([N+](=O)[O-])c4[nH]3)ccc21` is reported as 0.00017 ± 1e-05 µM (CHEK2 (Homo sapiens, UniProt O96017); kinase activity, inhibitor, IMAP fluorescence polarization).
`COC(=O)c1c(O)cc2c(c1C)C(=O)c1c(O)cccc1C2=O` has an IC50 of 22.5 µM (Rhomboid protease AarA (Providencia stuartii, UniProt P46116); inhibitor, fluorogenic peptide substrate).
`N#Cc1ccc2[nH]cc(/C=C/c3ccc([N+](=O)[O-])cc3F)c2c1` has an IC50 of over 20 µM (Amyloid-beta precursor protein, amyloid-beta peptide (APP, Homo sapiens, UniProt P05067); Aβ42 oligomerisation, ELISA).
With `O=C(NCc1ccc(-c2cnco2)cc1)[C@@H]1C[C@@H](O)CN1C(=O)c1cccc(O)c1` the IC50 was 23.4 ± 0.4 µM (von Hippel-Lindau disease tumor suppressor, with elongin B, C (VHL, Homo sapiens, UniProt P40337); binding, fluorescence polarization; 10% DMSO, together with: FAM-HIF1α peptide tracer).
For `O=C(CCl)N1CCN(c2cc(N3CCCC3)nc(N3CCCC3)n2)CC1`, the IC50 was 0.22 ± 0.12 µM (Caspase-1 (CASP1, Homo sapiens, UniProt P29466); inhibitor; 45 min preincubation).
The IC50 of `CC(C)CNC(=O)CSc1nc2ccc(NC(=O)CSc3ccccc3C(F)(F)F)cc2s1` is reported as 20 to 50 µM (Estrogen receptor (ESR1, Homo sapiens, UniProt P03372); reporter gene, antagonist; HEC-1 transfected ERα luciferase reporter).
`CCn1c(=Cc2cccc[n+]2C)sc(=C2Sc3ccccc3N2C)c1=O` gave an IC50 of 8.4 ± 0.8 µM (Heat shock 70 kDa protein 1A, with BAG1 (HSPA1A, Homo sapiens, UniProt P0DMV8); Hsp70-Bag1 interaction, inhibitor, flow cytometry (FCPIA); together with: labeled Bag1 50 nM).
For `COC(=O)/C(=C/c1c[nH]c2ccc(OC)cc12)c1ccc(F)cc1`, the IC50 was over 50 µM (IDO1 (Homo sapiens, UniProt P14902); enzyme activity, inhibitor).
`O=C(O)c1cc(C(=O)N2CCC[C@H]2C(=O)O)cc([C@H]2CCN[C@@H]2C(=O)O)c1` gave an IC50 of 4.5 ± 0.22 µM (Glutamate receptor ionotropic, NMDA 2C, with GluN1 (Rattus norvegicus, UniProt Q00961); ion current, antagonist, two-electrode voltage clamp; Xenopus oocytes; GluN1/GluN2C, together with: glycine 100 µM and glutamate 1 µM).
For `O=C(N/N=C/c1ccc(Sc2ccccn2)s1)c1cccc(Oc2ccccc2)c1`, the IC50 was 0.15 µM (Protein phosphatase EYA2 (Homo sapiens, UniProt O00167); tyrosine phosphatase activity, inhibitor).

Repeated from above:
The IC50 of `CC(C)CNC(=O)CSc1nc2ccc(NC(=O)CSc3ccccc3C(F)(F)F)cc2s1` is reported as 20 to 50 µM (Estrogen receptor (ESR1, Homo sapiens, UniProt P03372); reporter gene, antagonist; HEC-1 transfected ERα luciferase reporter).
`CCCCCC[C@@H]1C(=O)O[C@H]1C(=O)NCCC[C@H](NC(=O)[C@H](C)NC(=O)OCc1ccccc1)C(=O)OCc1ccccc1` has an IC50 of 2.16 ± 0.05 µM (PSMB6/PSMB7, caspase-like site (Homo sapiens, UniProt P28072+Q99436); caspase-like activity, inhibitor, fluorogenic; human 20S proteasome; 20 min preincubation, 37 °C, together with: Z-Leu-Leu-Glu-AMC 20 µM).
